Measured values pooled from the literature.
Lines come from different studies, so protocols differ. ± marks the error that the study gave.
ACHE: Acetylcholinesterase (ACHE, Homo sapiens, UniProt P22303)

Chains of the proteins cited; added tags and fusions are not shown. Residues count along the entry.
UniProt P22303, whole entry, looked up: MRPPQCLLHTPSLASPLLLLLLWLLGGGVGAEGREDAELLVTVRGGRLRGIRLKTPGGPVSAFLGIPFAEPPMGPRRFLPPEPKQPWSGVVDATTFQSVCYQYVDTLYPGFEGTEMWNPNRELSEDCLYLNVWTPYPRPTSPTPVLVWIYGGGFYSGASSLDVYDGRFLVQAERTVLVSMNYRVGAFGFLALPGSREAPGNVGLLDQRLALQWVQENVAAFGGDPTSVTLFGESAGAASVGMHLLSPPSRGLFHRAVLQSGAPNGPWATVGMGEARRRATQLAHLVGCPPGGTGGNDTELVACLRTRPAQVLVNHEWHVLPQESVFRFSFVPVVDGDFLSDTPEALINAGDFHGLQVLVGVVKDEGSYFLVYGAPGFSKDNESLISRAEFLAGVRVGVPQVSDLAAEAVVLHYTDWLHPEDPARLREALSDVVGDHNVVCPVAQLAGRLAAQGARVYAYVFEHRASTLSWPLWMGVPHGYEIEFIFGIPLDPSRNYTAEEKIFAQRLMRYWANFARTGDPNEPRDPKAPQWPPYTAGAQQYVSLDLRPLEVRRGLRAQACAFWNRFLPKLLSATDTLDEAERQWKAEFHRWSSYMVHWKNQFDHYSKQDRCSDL
UniProt Q01959, whole entry: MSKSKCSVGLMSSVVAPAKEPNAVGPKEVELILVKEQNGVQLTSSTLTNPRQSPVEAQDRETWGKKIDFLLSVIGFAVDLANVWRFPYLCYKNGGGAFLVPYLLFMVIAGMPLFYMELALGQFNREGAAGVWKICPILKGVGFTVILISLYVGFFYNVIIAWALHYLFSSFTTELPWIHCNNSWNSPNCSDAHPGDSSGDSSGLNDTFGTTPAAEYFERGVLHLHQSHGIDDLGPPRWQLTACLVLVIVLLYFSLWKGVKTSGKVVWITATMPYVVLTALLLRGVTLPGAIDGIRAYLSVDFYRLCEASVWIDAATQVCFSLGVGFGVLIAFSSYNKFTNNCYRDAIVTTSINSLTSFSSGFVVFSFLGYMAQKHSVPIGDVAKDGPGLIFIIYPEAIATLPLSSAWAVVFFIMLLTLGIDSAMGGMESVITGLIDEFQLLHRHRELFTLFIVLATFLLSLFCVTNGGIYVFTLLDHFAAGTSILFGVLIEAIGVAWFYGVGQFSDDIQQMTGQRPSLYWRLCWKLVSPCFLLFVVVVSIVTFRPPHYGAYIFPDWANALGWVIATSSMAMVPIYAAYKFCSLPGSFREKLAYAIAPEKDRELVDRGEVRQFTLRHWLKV
UniProt Q9UPZ9, whole entry: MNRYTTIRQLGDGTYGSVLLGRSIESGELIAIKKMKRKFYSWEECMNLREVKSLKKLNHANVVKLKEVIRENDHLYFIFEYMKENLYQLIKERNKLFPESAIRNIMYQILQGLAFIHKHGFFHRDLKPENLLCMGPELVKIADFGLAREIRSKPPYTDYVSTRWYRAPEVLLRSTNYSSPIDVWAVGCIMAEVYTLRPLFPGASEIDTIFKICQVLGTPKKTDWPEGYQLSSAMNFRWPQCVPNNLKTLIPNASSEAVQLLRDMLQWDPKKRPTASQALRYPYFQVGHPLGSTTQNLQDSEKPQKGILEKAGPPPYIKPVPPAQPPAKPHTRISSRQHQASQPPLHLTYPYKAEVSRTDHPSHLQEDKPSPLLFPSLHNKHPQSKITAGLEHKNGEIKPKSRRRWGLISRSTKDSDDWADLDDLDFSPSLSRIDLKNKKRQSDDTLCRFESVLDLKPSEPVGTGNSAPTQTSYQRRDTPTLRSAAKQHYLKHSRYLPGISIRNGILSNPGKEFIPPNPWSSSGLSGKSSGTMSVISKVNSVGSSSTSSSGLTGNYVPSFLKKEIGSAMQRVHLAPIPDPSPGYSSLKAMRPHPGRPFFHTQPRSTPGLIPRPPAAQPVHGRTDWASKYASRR
UniProt P54578, whole entry: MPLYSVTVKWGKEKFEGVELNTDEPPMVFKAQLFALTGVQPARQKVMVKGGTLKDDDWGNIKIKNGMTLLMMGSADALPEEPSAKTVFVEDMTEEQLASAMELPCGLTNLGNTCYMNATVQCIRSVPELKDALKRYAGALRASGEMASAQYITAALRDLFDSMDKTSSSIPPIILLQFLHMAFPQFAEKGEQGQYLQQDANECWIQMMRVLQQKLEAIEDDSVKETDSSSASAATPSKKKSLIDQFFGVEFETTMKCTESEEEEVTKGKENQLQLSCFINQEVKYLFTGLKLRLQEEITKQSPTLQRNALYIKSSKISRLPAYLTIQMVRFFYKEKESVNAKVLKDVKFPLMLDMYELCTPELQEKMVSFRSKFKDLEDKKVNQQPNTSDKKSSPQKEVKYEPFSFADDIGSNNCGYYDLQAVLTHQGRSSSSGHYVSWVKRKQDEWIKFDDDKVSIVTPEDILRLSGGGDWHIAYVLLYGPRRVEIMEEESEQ
UniProt P11229, whole entry: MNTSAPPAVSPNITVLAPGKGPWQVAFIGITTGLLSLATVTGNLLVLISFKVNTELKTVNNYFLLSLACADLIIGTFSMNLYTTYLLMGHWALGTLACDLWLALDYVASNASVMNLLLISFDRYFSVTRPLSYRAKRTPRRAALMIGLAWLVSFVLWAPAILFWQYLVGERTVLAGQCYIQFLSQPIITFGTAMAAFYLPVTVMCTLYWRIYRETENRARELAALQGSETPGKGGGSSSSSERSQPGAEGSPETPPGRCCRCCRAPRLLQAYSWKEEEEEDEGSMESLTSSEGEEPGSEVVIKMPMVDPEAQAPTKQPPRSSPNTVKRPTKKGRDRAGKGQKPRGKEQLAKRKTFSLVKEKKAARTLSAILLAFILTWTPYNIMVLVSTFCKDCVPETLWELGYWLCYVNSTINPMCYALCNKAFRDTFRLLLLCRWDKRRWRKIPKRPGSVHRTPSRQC
UniProt P17405, 47-631 limits assumed: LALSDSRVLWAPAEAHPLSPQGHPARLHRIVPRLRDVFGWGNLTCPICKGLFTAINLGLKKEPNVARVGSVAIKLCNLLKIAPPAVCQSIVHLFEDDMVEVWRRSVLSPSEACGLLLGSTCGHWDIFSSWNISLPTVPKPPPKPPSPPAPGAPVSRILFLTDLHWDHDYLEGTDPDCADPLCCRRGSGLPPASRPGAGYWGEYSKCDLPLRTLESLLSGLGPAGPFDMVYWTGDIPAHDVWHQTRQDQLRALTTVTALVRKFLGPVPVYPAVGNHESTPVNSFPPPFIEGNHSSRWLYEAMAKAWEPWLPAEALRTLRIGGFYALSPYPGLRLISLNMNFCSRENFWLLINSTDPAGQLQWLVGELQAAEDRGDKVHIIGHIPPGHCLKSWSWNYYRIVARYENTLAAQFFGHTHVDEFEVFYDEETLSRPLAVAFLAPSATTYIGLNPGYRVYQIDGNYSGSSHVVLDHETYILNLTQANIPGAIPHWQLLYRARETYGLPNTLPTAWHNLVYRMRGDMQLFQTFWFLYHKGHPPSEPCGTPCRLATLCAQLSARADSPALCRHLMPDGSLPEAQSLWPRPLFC
UniProt Q99720, whole entry: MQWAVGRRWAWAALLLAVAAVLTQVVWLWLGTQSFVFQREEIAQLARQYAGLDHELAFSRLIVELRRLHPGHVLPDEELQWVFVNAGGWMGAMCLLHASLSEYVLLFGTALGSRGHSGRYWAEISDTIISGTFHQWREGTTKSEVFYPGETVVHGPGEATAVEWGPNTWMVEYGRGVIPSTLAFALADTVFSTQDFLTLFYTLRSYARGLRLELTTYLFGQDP
UniProt G4NFI3, 1-514: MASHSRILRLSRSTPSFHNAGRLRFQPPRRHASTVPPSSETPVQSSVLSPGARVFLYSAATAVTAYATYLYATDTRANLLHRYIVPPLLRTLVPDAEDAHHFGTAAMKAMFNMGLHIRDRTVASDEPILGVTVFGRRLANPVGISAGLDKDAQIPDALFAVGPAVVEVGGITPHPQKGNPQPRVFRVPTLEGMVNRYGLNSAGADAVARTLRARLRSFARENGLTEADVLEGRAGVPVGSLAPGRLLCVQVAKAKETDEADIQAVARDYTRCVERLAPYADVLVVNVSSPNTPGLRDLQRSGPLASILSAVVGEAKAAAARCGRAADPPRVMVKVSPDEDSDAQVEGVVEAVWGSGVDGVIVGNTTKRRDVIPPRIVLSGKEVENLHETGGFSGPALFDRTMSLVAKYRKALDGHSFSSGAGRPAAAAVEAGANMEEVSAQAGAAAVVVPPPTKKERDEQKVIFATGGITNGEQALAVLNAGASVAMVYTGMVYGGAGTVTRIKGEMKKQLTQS
UniProt P52333, whole entry: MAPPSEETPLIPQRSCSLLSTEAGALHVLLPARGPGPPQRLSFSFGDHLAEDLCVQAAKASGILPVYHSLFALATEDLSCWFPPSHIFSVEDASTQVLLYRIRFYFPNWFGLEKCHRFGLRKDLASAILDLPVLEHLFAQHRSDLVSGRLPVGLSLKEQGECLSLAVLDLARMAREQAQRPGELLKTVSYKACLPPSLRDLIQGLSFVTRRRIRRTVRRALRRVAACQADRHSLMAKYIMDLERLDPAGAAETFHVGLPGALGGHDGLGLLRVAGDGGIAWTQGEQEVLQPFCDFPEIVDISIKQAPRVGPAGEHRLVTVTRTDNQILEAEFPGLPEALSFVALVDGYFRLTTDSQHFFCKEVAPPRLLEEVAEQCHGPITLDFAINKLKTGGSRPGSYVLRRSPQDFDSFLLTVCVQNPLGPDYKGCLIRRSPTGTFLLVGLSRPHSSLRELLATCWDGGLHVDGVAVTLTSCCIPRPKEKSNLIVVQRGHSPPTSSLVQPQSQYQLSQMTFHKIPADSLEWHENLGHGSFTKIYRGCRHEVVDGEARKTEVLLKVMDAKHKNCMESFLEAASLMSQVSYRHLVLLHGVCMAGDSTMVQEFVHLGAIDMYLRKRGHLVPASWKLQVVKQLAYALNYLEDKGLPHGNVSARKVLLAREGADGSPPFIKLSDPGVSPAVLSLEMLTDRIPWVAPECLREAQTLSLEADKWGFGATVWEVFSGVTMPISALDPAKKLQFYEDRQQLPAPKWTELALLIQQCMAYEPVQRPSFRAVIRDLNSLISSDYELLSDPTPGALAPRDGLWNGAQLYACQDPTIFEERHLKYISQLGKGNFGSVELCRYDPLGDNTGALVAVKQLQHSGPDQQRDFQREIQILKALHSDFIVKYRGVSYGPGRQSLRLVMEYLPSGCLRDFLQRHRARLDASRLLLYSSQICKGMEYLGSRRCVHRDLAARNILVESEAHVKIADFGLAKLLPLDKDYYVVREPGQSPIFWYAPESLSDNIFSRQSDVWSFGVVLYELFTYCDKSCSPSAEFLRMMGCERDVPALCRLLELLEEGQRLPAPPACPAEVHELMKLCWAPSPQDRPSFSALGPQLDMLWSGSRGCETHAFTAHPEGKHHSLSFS
UniProt Q05941, 23-502 limits assumed: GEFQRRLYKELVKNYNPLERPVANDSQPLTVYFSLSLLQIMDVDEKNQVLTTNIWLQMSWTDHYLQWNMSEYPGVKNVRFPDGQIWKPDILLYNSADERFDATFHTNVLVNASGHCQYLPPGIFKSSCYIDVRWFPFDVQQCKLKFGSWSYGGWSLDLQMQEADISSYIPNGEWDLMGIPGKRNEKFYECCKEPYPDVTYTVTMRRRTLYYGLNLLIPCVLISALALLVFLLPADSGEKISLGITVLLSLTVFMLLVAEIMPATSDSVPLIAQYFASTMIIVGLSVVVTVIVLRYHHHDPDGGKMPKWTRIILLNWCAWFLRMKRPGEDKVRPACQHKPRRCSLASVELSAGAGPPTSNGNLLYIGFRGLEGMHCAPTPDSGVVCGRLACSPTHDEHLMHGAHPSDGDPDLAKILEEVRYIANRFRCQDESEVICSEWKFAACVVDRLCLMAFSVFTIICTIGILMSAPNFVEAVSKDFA

For `CC(C)N(Cc1cc(O)ccc1N)C(C)C`, the inhibition was 94% (ACHE; enzyme activity, inhibitor; 1000 µM).
`CC(Cc1ccccc1)NCCn1cnc2c1c(=O)n(C)c(=O)n2C` (centres unmarked) has an inhibition of 9% (SLC6A3 (Homo sapiens, UniProt Q01959); radioligand binding; 10 µM).
With `CN(C)Cc1cccc(N)c1O` the inhibition was 43% (ACHE; enzyme activity, inhibitor; 1000 µM).
`CCN1CCN(Cc2ccc(NC(=O)c3ccc(C)c(/C=C/c4cnc5[nH]ccc5c4OC)c3)cc2C(F)(F)F)CC1`: “log2 fold change” -0.045 log2 (CILK1 (Homo sapiens, UniProt Q9UPZ9); inhibitor, cell-based kinome screen; 5 µM; reference: vehicle).
`CSCC[C@@H]1NC(=O)[C@H](CC(C)C)NC(=O)[C@H](CCCNC(=N)N)NC(=O)[C@H](CO)NC(=O)[C@@H]2CSSC[C@@H]3NC(=O)[C@H](CO)NC(=O)CNC(=O)[C@H]([C@@H](C)O)NC(=O)[C@H](CSSC[C@H](N)C(=O)N[C@@H](CCCCN)C(=O)NCC(=O)N[C@@H](CCCCN)C(=O)NCC(=O)N[C@@H](C)C(=O)N[C@@H](CCCCN)C(=O)N2)NC(=O)[C@H](CSSC[C@@H](C(N)=O)NC(=O)[C@H](CCCCN)NC(=O)CNC(=O)[C@H](CO)NC(=O)[C@H](CCCNC(=N)N)NC3=O)NC(=O)[C@H](CC(=O)O)NC(=O)[C@H](Cc2ccc(O)cc2)NC1=O` gave an inhibition of 12% (Voltage-dependent P/Q-type calcium channel subunit alpha-1A (Homo sapiens, UniProt O00555); antagonist; HEK293; 3 µM).
`CCn1ccc(-c2cc(-c3cnn(C)c3)cc([C@@H](C)NC(=O)c3cc(OCCN(C)C)ccc3C)c2)n1`: inhibition “no inhibition” (USP14 (Homo sapiens, UniProt P54578); enzyme activity; up to 40 µM, with: Ub-AMC substrate).
For `CC(C)[C@H]1CC[C@@H](N2CCC(n3c(CO)cc4ccccc43)CC2)CC1`, the inhibition was 85% (CHRM1 (Homo sapiens, UniProt P11229); radioligand binding; 10 µM).
`O=C(O)c1ccccc1[As](=O)(O)O`: inhibition “inhibited” (SMPD1 (Homo sapiens, UniProt P17405); enzyme activity; concentration not given, pH 6.5, with: sphingomyelin substrate).
`Cc1ncc(-c2cc(Cl)ccc2F)cc1-n1c(=O)n(CC(N)=O)c2ccccc21` gave an inhibition of 13.2% (SIGMAR1 (Homo sapiens, UniProt Q99720); binding, radioligand binding; 10 µM).
`CC(C)CC(C)c1sccc1NC(=O)c1cn(C)nc1C(F)(F)F` (centres unmarked): inhibition “no inhibition” (Dihydroorotate dehydrogenase (quinone) (Pyricularia oryzae, UniProt G4NFI3, M402V); enzyme activity; up to 10 µM).
`CCOc1ccc(N)cc1CN(CC)CC` has an inhibition of 5% (ACHE; enzyme activity, inhibitor; 1000 µM).
For `CC#C/C(=N\OC[C@H]1COCCN1)c1ccc2ncnc(Nc3ccc(OCc4cccc(F)c4)c(Cl)c3)c2c1`, the inhibition was -5.3% (JAK3 (Homo sapiens, UniProt P52333); kinase activity; 10 µM).
The inhibition of `O=C(NCC1CCN(Cc2ccccc2)CC1)c1cn(Cc2cccc(Cl)c2)nn1` is reported as 83 ± 1.7% (Chrna7 (Rattus norvegicus, UniProt Q05941); binding; rat brain membranes; 10 µM, with: radiolabelled α-bungarotoxin).
For `CCN(CC)Cc1cc(N(C)C)ccc1O`, the inhibition was 0% (ACHE; enzyme activity, inhibitor; 1000 µM).

A few entries again:
`CC(C)CC(C)c1sccc1NC(=O)c1cn(C)nc1C(F)(F)F` (centres unmarked): inhibition “no inhibition” (Dihydroorotate dehydrogenase (quinone) (Pyricularia oryzae, UniProt G4NFI3, M402V); enzyme activity; up to 10 µM).
